Results collected from several papers.
Each line is one published result; not all experiments were run side by side. Values joined by “and” are separate records of one study, mostly repeats; a detail may differ. Numbers after ± are the reported error. ≈ marks a conversion by molar mass, not a printed value.

| Compound | organism | test | test system | conditions | how to read | endpoint | result |
| --- | --- | --- | --- | --- | --- | --- | --- |
| N#Cc1ncn(COCCOCc2ccccc2)c1C#N | Zaire ebolavirus | viral replication, inhibitor | Vero | 72 h |  | IC50 | 13 µg/mL |
| Oc1c(Cl)cc(Cl)c2cccnc12 | Shigella dysenteriae | microbial growth, agar dilution |  |  |  | MIC | 37.4 µM |
| N#Cc1ncn(C2OC(CO)C(O)C2O)c1C#N (stereo not drawn) | Severe acute respiratory syndrome coronavirus | viral replication | Vero | 48 h |  | IC50 | 46 µg/mL |
| COc1ccc(C2=[N+]([O-])c3ccccc3N3CCN=C23)cc1 | Clostridium perfringens | microbial growth |  |  |  | MIC50 | 0.5 µg/mL (≈ 1.7 µM) |
| CCOP(=O)(COCCn1cnc(C#N)c1C#N)OCC | Mammarenavirus lassaense | viral replication, inhibitor | Vero | 48 h |  | IC50 | 13 µg/mL |
| COc1ccc(C2=[N+]([O-])c3ccccc3N3CC(C)(C)CN=C23)cc1 | Clostridium perfringens |  |  |  |  | MIC90 | 8 µg/mL (≈ 23.9 µM) |
| COC(=O)CCCC1C2CCCN3CCCC(CN1S(=O)(=O)c1ccc(Cl)cc1)C23 (stereo not drawn) | Ebola virus |  |  | EBOV GP pseudotyped HIV | reference: CC50 over IC50 | selectivity index | 24.3 |
| [O-][N+]1=C(c2ccsc2)C2=NCCCN2c2ccccc21 | Clostridium perfringens |  |  |  |  | MIC | 2 to 8 µg/mL |
| CC[C@H](C)[C@H](NC(C)=O)C(=O)N[C@@H](CO)C(=O)NCC(=O)N[C@H](C(=O)N[C@@H](CC(N)=O)C(=O)N[C@@H](C)C(=O)N[C@@H](CO)C(=O)N[C@H](C(=O)N[C@H](C(=O)N[C@@H](CC(N)=O)C(=O)N[C@H](C(=O)N[C@@H](CCC(N)=O)C(=O)N[C@@H](CCC(=O)O)C(=O)N[C@@H](CCC(=O)O)C(=O)N[C@H](C(=O)N[C@@H](CCCCN)C(=O)N[C@@H](CCCCN)C(=O)N[C@@H](CC(C)C)C(=O)N[C@@H](CC(N)=O)C(=O)N[C@@H](CCC(=O)O)C(=O)N[C@@H](CCC(=O)O)C(=O)N[C@@H](C)C(=O)N[C@@H](CCCCN)C(=O)N[C@@H](CCCCN)C(=O)N[C@@H](CC(C)C)C(=O)N[C@@H](CC(N)=O)C(=O)N[C@@H](CCC(=O)O)C(=O)N[C@@H](CO)C(=O)N[C@@H](CC(C)C)C(=O)N[C@H](C(=O)N[C@@H](CC(=O)O)C(=O)N[C@@H](CC(C)C)C(=O)N[C@@H](CCC(N)=O)C(=O)N[C@@H](CCC(=O)O)C(=O)NCC(=O)NCC(=O)NCC(=O)N[C@@H](CO)C(=O)NCC(=O)NCC(=O)NCC(=O)N[C@@H](CSSC[C@H](NC(=O)CNC(=O)CNC(=O)CNC(=O)[C@H](CO)NC(=O)CNC(=O)CNC(=O)CNC(=O)[C@H](CCC(=O)O)NC(=O)[C@H](CCC(N)=O)NC(=O)[C@H](CC(C)C)NC(=O)[C@H](CC(=O)O)NC(=O)[C@@H](NC(=O)[C@H](CC(C)C)NC(=O)[C@H](CO)NC(=O)[C@H](CCC(=O)O)NC(=O)[C@H](CC(N)=O)NC(=O)[C@H](CC(C)C)NC(=O)[C@H](CCCCN)NC(=O)[C@H](CCCCN)NC(=O)[C@H](C)NC(=O)[C@H](CCC(=O)O)NC(=O)[C@H](CCC(=O)O)NC(=O)[C@H](CC(N)=O)NC(=O)[C@H](CC(C)C)NC(=O)[C@H](CCCCN)NC(=O)[C@H](CCCCN)NC(=O)[C@@H](NC(=O)[C@H](CCC(=O)O)NC(=O)[C@H](CCC(=O)O)NC(=O)[C@H](CCC(N)=O)NC(=O)[C@@H](NC(=O)[C@H](CC(N)=O)NC(=O)[C@@H](NC(=O)[C@@H](NC(=O)[C@H](CO)NC(=O)[C@H](C)NC(=O)[C@H](CC(N)=O)NC(=O)[C@@H](NC(=O)CNC(=O)[C@H](CO)NC(=O)[C@@H](NC(C)=O)[C@@H](C)CC)[C@@H](C)CC)C(C)C)C(C)C)[C@@H](C)CC)[C@@H](C)CC)[C@@H](C)CC)C(=O)N[C@@H](CCCNC(=N)N)C(=O)N[C@@H](CCCNC(=N)N)C(=O)N[C@@H](CCCNC(=N)N)C(=O)N[C@@H](CCCNC(=N)N)C(=O)N[C@@H](CCCNC(=N)N)C(=O)N[C@@H](CCCNC(=N)N)C(=O)N[C@@H](CCCNC(=N)N)C(=O)N[C@@H](CCCNC(=N)N)C(N)=O)C(=O)N[C@@H](CCCNC(=N)N)C(=O)N[C@@H](CCCNC(=N)N)C(=O)N[C@@H](CCCNC(=N)N)C(=O)N[C@@H](CCCNC(=N)N)C(=O)N[C@@H](CCCNC(=N)N)C(=O)N[C@@H](CCCNC(=N)N)C(=O)N[C@@H](CCCNC(=N)N)C(=O)N[C@@H](CCCNC(=N)N)C(N)=O)[C@@H](C)CC)[C@@H](C)CC)[C@@H](C)CC)C(C)C)C(C)C)[C@@H](C)CC | SARS-CoV-2 Wuhan | viral replication | VeroE6/TMPRSS2 cells |  | reference: corresponding monomer | fold change IC50 vs corresponding monomer | 1.93 |
| NNC(=O)c1ncn(C2OC(CO)C(O)C2O)c1C(=O)NN (stereo not drawn) | Mammarenavirus lassaense | viral replication | Vero | 48 h |  | IC90 | > 50 µg/mL |
| O=[N+]([O-])c1ccc(-n2nc(-c3ccccc3)cc2-c2ccc(F)cc2)c([N+](=O)[O-])c1 | Japanese encephalitis virus |  | SA14-14-2, BALB/c mice, spleen | ip, 100 mg/kg/day | reference: untreated | viral RNA reduction | > 41% |
| CC(C)CC(C(=O)N1CC2(CC1C#N)C(=O)Nc1ccccc12)N(C)C(=O)c1cc2c(F)cc(F)c(F)c2[nH]1 (stereo not drawn) | SARS-CoV-2 | viral replication, infectious virus | Vero E6 | 0.004 µM |  | inhibition | 42.4% |
| Cc1ccc(NS(=O)(=O)c2c(C(=O)N3CCCCCC3)c(C)n(C)c2C)c(Cl)c1 | Monkeypox virus | qPCR | Vero C1008, wild type | 0.8 µM, 72 h | reference: untreated | relative infection | 39.8% and 22.7% and 43.5% |
| O=c1ccn(C2OC(F)(CO)C(O)C2O)c(=O)[nH]1 (stereo not drawn) | Lassa mammarenavirus | viral replication | Huh-7 | concentration not given |  | Emax | 99.4 ± 0.18% |
| CN1CCN(C(=O)N[C@@H](Cc2ccccc2)C(=O)N[C@H](/C=C/S(=O)(=O)c2ccccc2)CCc2ccccc2)CC1 | Reston ebolavirus | pseudovirus entry | HEK293T | RESTV |  | IC50 | 3.37 ± 0.29 nM |
| CC[C@H](C)[C@H](NC(=O)[C@H](CCCCN)NC(=O)[C@H](CCCCN)NC(=O)[C@H](CC(C)C)NC(=O)[C@H](Cc1c[nH]c2ccccc12)NC(=O)CN)C(=O)NCC(=O)N[C@@H](CCCCN)C(=O)N[C@@H](CCCCN)C(=O)N[C@H](C(=O)N[C@@H](CCC(=O)O)C(=O)N[C@@H](CCCNC(=N)N)C(=O)N[C@H](C(=O)NCC(=O)N[C@@H](CCC(N)=O)C(=O)N[C@@H](Cc1c[nH]cn1)C(=O)N[C@H](C(=O)N[C@@H](CCCNC(=N)N)C(=O)N[C@@H](CC(=O)O)C(=O)N[C@@H](C)C(=O)N[C@H](C(=O)N[C@H](C(=O)N[C@@H](CCC(N)=O)C(=O)N[C@H](C(=O)N[C@H](C(=O)NCC(=O)N[C@H](C(=O)N[C@@H](C)C(=O)N[C@@H](CCC(N)=O)C(=O)N[C@@H](CCC(N)=O)C(=O)N[C@@H](C)C(=O)N[C@@H](C)C(=O)N[C@@H](CC(N)=O)C(=O)N[C@H](C(=O)N[C@@H](C)C(=O)N[C@@H](C)C(=O)N[C@H](C(=O)N[C@@H](CC(C)C)C(=O)N[C@@H](CCCCN)C(N)=O)[C@@H](C)O)C(C)C)C(C)C)[C@@H](C)CC)[C@@H](C)O)[C@@H](C)CC)[C@@H](C)O)[C@@H](C)O)C(C)C)[C@@H](C)CC | Enterobacteriaceae, Acinetobacter baumannii |  | reference strains, CAMHB |  |  | MIC | 4 µg/mL |
| C[N+]1=C2C(c3ccc(Cl)cc3)=[N+]([O-])c3ccccc3N2CCC1 | Clostridium perfringens |  |  |  |  | MIC90 | 32 µg/mL |
| O=[N+]([O-])c1ccc(-n2nc(-c3ccc(F)cc3)cc2-c2ccc(F)cc2)c([N+](=O)[O-])c1 | Japanese encephalitis virus | plaque | Neuro2a, SA14-14-2 | 15 µM, 72 h, post-treatment |  | viral particle reduction | ≤ 90% |
| COC(=O)c1ccccc1NC(=O)Cc1cn(OC)c2ccccc12 | HIV-1 | viral replication | RT K103N/G190A |  | reference: wild type | EC50 fold change | 3.19 ± 0.4 fold |
| O=C(C=Cc1ccc(O)c(O)c1)OC1CC(O)(C(=O)O)CC(OC(=O)C=Cc2ccc(O)c(O)c2)C1O (stereo not drawn) | Severe acute respiratory syndrome coronavirus 2 | cytopathic effect, inhibitor | Vero C1008 | 1.562 µM |  | inhibition | 0% |
| O=S(=O)(O)c1c2ccccc2c(-c2c3nc(c(-c4c5ccccc5c(S(=O)(=O)O)c5ccccc45)c4ccc([nH]4)c(-c4c5ccccc5c(S(=O)(=O)O)c5ccccc45)c4nc(c(-c5c6ccccc6c(S(=O)(=O)O)c6ccccc56)c5ccc2[nH]5)C=C4)C=C3)c2ccccc12 | vaccinia virus |  | WR | 25 µg/mL, 16 h |  | virus titre | 1.2e+06 PFU/mL |

For quick reference, copied from above:
| Compound | organism | test | test system | conditions | how to read | endpoint | result |
| --- | --- | --- | --- | --- | --- | --- | --- |
| CC[C@H](C)[C@H](NC(C)=O)C(=O)N[C@@H](CO)C(=O)NCC(=O)N[C@H](C(=O)N[C@@H](CC(N)=O)C(=O)N[C@@H](C)C(=O)N[C@@H](CO)C(=O)N[C@H](C(=O)N[C@H](C(=O)N[C@@H](CC(N)=O)C(=O)N[C@H](C(=O)N[C@@H](CCC(N)=O)C(=O)N[C@@H](CCC(=O)O)C(=O)N[C@@H](CCC(=O)O)C(=O)N[C@H](C(=O)N[C@@H](CCCCN)C(=O)N[C@@H](CCCCN)C(=O)N[C@@H](CC(C)C)C(=O)N[C@@H](CC(N)=O)C(=O)N[C@@H](CCC(=O)O)C(=O)N[C@@H](CCC(=O)O)C(=O)N[C@@H](C)C(=O)N[C@@H](CCCCN)C(=O)N[C@@H](CCCCN)C(=O)N[C@@H](CC(C)C)C(=O)N[C@@H](CC(N)=O)C(=O)N[C@@H](CCC(=O)O)C(=O)N[C@@H](CO)C(=O)N[C@@H](CC(C)C)C(=O)N[C@H](C(=O)N[C@@H](CC(=O)O)C(=O)N[C@@H](CC(C)C)C(=O)N[C@@H](CCC(N)=O)C(=O)N[C@@H](CCC(=O)O)C(=O)NCC(=O)NCC(=O)NCC(=O)N[C@@H](CO)C(=O)NCC(=O)NCC(=O)NCC(=O)N[C@@H](CSSC[C@H](NC(=O)CNC(=O)CNC(=O)CNC(=O)[C@H](CO)NC(=O)CNC(=O)CNC(=O)CNC(=O)[C@H](CCC(=O)O)NC(=O)[C@H](CCC(N)=O)NC(=O)[C@H](CC(C)C)NC(=O)[C@H](CC(=O)O)NC(=O)[C@@H](NC(=O)[C@H](CC(C)C)NC(=O)[C@H](CO)NC(=O)[C@H](CCC(=O)O)NC(=O)[C@H](CC(N)=O)NC(=O)[C@H](CC(C)C)NC(=O)[C@H](CCCCN)NC(=O)[C@H](CCCCN)NC(=O)[C@H](C)NC(=O)[C@H](CCC(=O)O)NC(=O)[C@H](CCC(=O)O)NC(=O)[C@H](CC(N)=O)NC(=O)[C@H](CC(C)C)NC(=O)[C@H](CCCCN)NC(=O)[C@H](CCCCN)NC(=O)[C@@H](NC(=O)[C@H](CCC(=O)O)NC(=O)[C@H](CCC(=O)O)NC(=O)[C@H](CCC(N)=O)NC(=O)[C@@H](NC(=O)[C@H](CC(N)=O)NC(=O)[C@@H](NC(=O)[C@@H](NC(=O)[C@H](CO)NC(=O)[C@H](C)NC(=O)[C@H](CC(N)=O)NC(=O)[C@@H](NC(=O)CNC(=O)[C@H](CO)NC(=O)[C@@H](NC(C)=O)[C@@H](C)CC)[C@@H](C)CC)C(C)C)C(C)C)[C@@H](C)CC)[C@@H](C)CC)[C@@H](C)CC)C(=O)N[C@@H](CCCNC(=N)N)C(=O)N[C@@H](CCCNC(=N)N)C(=O)N[C@@H](CCCNC(=N)N)C(=O)N[C@@H](CCCNC(=N)N)C(=O)N[C@@H](CCCNC(=N)N)C(=O)N[C@@H](CCCNC(=N)N)C(=O)N[C@@H](CCCNC(=N)N)C(=O)N[C@@H](CCCNC(=N)N)C(N)=O)C(=O)N[C@@H](CCCNC(=N)N)C(=O)N[C@@H](CCCNC(=N)N)C(=O)N[C@@H](CCCNC(=N)N)C(=O)N[C@@H](CCCNC(=N)N)C(=O)N[C@@H](CCCNC(=N)N)C(=O)N[C@@H](CCCNC(=N)N)C(=O)N[C@@H](CCCNC(=N)N)C(=O)N[C@@H](CCCNC(=N)N)C(N)=O)[C@@H](C)CC)[C@@H](C)CC)[C@@H](C)CC)C(C)C)C(C)C)[C@@H](C)CC | SARS-CoV-2 Wuhan | viral replication | VeroE6/TMPRSS2 cells |  | reference: corresponding monomer | fold change IC50 vs corresponding monomer | 1.93 |
| NNC(=O)c1ncn(C2OC(CO)C(O)C2O)c1C(=O)NN (stereo not drawn) | Mammarenavirus lassaense | viral replication | Vero | 48 h |  | IC90 | > 50 µg/mL |
